Experimental data gathered from unrelated publications.
Numbered parts are unrelated; each lists some results of a single study. “And” joins repeats or separate records; there may be more than shown.
UniProt P35968, sequence (whole entry, looked up): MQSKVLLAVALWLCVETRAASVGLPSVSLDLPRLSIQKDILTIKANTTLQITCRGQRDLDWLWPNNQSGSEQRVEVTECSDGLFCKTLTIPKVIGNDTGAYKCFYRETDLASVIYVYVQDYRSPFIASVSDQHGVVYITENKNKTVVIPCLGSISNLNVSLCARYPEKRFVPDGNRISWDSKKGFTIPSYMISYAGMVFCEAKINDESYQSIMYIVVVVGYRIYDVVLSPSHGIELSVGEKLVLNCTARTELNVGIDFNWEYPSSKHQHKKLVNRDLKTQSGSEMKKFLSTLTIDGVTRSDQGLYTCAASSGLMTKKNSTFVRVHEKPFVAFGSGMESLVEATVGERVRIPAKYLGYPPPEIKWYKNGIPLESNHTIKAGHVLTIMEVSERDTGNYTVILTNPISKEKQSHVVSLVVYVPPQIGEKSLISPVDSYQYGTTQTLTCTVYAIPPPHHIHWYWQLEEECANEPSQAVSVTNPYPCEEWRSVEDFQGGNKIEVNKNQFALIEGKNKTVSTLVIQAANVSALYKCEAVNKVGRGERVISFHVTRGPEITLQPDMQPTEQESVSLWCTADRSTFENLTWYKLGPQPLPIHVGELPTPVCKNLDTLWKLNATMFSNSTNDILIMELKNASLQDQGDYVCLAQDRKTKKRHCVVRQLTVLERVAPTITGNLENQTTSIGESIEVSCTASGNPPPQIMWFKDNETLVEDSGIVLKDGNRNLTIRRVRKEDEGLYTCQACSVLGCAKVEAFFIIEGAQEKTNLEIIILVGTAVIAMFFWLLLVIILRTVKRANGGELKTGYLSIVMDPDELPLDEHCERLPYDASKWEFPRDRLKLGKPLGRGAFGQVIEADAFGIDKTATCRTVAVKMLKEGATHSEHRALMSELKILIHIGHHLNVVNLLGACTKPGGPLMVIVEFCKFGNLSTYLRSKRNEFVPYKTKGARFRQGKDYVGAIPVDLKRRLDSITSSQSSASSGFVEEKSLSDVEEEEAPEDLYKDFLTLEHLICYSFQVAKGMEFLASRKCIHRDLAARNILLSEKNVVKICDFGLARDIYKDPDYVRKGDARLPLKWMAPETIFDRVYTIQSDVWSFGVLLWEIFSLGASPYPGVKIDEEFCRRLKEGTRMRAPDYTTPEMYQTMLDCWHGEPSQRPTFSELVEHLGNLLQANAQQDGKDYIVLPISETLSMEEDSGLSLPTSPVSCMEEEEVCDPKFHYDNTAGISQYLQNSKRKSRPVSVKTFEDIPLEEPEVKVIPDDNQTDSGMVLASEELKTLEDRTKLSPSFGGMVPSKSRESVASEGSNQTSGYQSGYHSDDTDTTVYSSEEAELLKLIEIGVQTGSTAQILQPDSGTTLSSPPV
UniProt Q96L34, sequence (whole entry, looked up): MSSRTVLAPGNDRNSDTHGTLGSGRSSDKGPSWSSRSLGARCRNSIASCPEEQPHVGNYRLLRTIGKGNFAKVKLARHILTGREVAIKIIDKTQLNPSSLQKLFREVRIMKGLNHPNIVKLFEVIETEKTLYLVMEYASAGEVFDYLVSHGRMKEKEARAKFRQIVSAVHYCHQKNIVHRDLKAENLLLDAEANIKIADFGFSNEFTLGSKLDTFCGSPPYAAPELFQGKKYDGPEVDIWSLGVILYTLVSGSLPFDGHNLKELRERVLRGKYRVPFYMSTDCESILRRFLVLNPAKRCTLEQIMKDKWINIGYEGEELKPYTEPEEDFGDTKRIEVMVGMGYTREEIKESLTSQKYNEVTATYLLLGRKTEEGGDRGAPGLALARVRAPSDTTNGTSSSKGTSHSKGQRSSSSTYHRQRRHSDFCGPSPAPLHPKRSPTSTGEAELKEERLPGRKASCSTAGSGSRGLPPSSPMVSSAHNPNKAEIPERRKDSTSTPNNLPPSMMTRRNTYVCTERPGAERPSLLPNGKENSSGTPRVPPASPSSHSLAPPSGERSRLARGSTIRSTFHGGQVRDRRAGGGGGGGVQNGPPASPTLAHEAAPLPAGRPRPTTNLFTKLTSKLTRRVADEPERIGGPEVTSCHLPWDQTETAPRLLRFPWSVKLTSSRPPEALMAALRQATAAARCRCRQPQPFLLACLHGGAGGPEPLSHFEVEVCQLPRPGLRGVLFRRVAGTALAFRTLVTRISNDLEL
UniProt Q86UE8, sequence (whole entry, looked up): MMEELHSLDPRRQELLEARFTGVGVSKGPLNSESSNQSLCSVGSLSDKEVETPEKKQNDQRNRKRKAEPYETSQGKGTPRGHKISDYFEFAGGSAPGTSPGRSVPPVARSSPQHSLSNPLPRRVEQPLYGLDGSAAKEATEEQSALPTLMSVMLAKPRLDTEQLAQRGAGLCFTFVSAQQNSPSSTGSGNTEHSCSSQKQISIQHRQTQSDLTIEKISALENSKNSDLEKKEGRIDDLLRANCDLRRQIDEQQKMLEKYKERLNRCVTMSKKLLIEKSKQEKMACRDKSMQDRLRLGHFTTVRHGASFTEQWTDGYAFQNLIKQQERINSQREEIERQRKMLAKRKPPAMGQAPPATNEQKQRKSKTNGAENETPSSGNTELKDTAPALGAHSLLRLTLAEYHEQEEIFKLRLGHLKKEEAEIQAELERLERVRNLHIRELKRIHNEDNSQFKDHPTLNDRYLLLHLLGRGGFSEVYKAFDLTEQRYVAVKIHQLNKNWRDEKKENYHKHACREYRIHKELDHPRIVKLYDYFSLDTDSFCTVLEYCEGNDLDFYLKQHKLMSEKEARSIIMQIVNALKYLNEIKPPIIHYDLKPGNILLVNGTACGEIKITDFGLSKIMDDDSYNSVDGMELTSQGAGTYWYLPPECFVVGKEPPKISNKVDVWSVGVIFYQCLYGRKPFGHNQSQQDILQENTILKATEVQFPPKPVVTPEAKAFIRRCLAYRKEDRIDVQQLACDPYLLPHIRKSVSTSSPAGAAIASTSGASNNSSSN
UniProt Q16566, sequence (whole entry, looked up): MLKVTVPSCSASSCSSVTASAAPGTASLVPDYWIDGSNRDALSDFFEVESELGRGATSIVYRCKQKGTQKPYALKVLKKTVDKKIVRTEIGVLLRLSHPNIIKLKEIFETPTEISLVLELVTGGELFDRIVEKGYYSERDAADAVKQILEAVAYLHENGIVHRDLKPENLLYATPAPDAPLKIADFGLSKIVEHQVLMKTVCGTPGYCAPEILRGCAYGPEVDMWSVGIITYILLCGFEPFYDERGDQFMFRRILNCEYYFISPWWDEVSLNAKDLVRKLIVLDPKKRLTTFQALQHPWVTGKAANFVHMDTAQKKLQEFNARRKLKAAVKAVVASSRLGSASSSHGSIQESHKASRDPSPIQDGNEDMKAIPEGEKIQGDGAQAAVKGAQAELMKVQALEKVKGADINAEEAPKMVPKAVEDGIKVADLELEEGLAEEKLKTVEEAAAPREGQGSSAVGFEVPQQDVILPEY
UniProt P06493, sequence (whole entry, looked up): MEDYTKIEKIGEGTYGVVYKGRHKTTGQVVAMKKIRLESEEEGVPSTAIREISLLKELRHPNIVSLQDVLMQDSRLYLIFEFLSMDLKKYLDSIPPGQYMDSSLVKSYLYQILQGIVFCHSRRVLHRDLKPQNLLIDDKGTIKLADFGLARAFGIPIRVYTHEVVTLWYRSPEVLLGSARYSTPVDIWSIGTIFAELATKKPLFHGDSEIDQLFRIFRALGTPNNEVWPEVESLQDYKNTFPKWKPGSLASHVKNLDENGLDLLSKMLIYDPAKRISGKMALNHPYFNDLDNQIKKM
UniProt P31751, sequence (whole entry, looked up): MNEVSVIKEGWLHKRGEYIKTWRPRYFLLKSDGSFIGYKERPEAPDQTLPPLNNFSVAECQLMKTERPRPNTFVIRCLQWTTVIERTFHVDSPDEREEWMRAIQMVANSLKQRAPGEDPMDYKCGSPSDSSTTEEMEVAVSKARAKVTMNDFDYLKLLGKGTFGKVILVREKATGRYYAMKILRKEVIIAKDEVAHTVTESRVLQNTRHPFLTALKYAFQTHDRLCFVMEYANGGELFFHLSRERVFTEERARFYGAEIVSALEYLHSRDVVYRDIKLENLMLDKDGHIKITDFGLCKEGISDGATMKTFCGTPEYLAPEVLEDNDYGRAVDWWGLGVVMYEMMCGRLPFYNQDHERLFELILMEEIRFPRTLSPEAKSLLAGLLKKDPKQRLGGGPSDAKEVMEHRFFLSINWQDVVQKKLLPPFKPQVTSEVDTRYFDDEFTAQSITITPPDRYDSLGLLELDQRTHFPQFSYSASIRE
UniProt Q16832, sequence (whole entry, looked up): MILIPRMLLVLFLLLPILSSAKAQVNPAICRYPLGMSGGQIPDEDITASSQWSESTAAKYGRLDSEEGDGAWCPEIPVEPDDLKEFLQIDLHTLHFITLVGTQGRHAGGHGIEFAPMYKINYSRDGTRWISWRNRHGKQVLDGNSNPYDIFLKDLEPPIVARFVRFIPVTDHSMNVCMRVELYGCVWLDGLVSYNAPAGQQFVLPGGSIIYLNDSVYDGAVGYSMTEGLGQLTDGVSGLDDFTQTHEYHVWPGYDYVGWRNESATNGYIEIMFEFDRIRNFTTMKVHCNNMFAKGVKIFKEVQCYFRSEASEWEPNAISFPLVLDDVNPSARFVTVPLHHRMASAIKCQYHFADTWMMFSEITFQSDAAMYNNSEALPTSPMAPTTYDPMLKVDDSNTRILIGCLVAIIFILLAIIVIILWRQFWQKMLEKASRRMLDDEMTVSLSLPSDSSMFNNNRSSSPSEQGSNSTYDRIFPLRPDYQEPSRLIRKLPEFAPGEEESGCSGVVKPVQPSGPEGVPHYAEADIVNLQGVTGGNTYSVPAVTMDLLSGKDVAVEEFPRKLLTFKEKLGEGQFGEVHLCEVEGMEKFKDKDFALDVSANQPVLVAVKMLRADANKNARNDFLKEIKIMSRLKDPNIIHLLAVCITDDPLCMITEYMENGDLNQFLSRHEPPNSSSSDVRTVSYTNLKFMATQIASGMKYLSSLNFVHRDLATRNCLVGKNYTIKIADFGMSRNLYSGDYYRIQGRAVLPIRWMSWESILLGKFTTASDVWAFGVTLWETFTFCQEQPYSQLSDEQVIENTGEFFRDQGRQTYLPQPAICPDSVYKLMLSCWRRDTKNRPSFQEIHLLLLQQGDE

Sample 1
SMILES: c1ccc(N2CCN(Cc3nc4ccccc4[nH]3)CC2)nc1
Read-out: binding
Technique: radioligand binding
target | Ki [µM]
D(4) dopamine receptor (DRD4, Homo sapiens, UniProt P21917) | 0.319
Sigma intracellular receptor 2 (TMEM97, Homo sapiens, UniProt Q5BJF2) | 6.22
Histamine H1 receptor (HRH1, Homo sapiens, UniProt P35367) | 6.71

Sample 2
SMILES: COc1cc(C(=O)N2CCC(N3CCN(C)CC3)CC2)ccc1Nc1ncc2c(n1)N(C)c1ccccc1C(=O)N2C
target or system | test | test system | setting | inhibition
RSKL1 domain 1 (mouse) | probe labelling, inhibitor, KiNativ ActivX ADP probe | mouse brain lysate | 0.1 µM, kinase domain peptide | 9%
human PBMC | probe labeling, inhibitor, KiNativ profiling, refers to: DVkPSNVLINK | cell lysate | concentration not given, LYS2 site, added: ATP acyl-phosphate probe | -7%
PIP4K2A and PIP4K2B human | KiNativ profiling | human PBMC | 0.1 µM, ATP site, added: ATP acyl phosphate probe | -8.6% and 1.2%
mouse MER and TYRO3 | probe labelling, KiNativ ADP probe | mouse brain lysate | 0.1 µM | -16.1%
BARK1 and BARK2 mouse | KiNativ profiling | mouse brain lysate | 0.1 µM, LYS1 site, added: ADP acyl phosphate probe | 5%
mouse ROCK1 | probe labelling, KiNativ ATP probe | mouse brain lysate | 1 µM | 7.7%
TNIK (human) | probe labelling, KiNativ, refers to: Lys1 site peptide | PBMC lysate (human) | 0.1 µM, added: ATP acyl-phosphate probe | 10.2%
CDK5 (mouse) | probe labelling, KiNativ, refers to: DLkPQNLLINR peptide, LYS2 site | brain tissue lysate (mouse) | 1 µM, added: ADP acyl-phosphate probe | 7.4%
INSR (mouse) | probe labelling, KiNativ ADP probe | mouse brain lysate | 0.1 µM, LYS1 labelled site | 14%

Sample 3
Compound: O=c1cc(N2CCOCC2)oc2c(-c3ccccc3)cccc12
Read-out: enzyme activity
Action: inhibitor
Concentration: 0.5 µM
Baseline: control
target | remaining activity [%]
G protein-coupled receptor kinase 4 (GRK4, Homo sapiens, UniProt P32298) | 96.5
Rho-associated protein kinase 1 (ROCK1, Homo sapiens, UniProt Q13464) | 104
RAC-beta serine/threonine-protein kinase (AKT2, Homo sapiens, UniProt P31751) | 94
Serine/threonine-protein kinase tousled-like 2 (TLK2, Homo sapiens, UniProt Q86UE8) | 83.2
Calcium/calmodulin-dependent protein kinase type IV (CAMK4, Homo sapiens, UniProt Q16566) | 104
Tyrosine-protein kinase TXK (TXK, Homo sapiens, UniProt P42681) | 93.6
Vascular endothelial growth factor receptor 2 (KDR, Homo sapiens, UniProt P35968) | 87.2
Mitogen-activated protein kinase 14 (MAPK14, Homo sapiens, UniProt Q16539) | 87.7
Myosin-IIIb (MYO3B, Homo sapiens, UniProt Q8WXR4) | 104
Cyclin-dependent kinase 1, with cyclin A (CDK1, Homo sapiens, UniProt P06493) | 92
cGMP-dependent protein kinase 2 (PRKG2, Homo sapiens, UniProt Q13237) | 105
Discoidin domain-containing receptor 2 (DDR2, Homo sapiens, UniProt Q16832) | 91.3
Cyclin-dependent kinase 9, with cyclin K (CDK9, Homo sapiens, UniProt P50750) | 95.9
MAP/microtubule affinity-regulating kinase 4 (MARK4, Homo sapiens, UniProt Q96L34) | 91.4

Sample 4
Target: Bromodomain-containing protein 4, BD1 (BRD4, Homo sapiens, UniProt O60885)
Read-out: acetyl-histone H4 peptide binding
Technique: AlphaScreen displacement
Concentration: 50 µM
Compound | inhibition [%]
O=C1NC(=O)C(=Cc2ccc(-c3ccccc3[N+](=O)[O-])o2)S1 | 43.3
O=S(=O)(O)c1cccc(NN=Nc2ccc(Br)cc2)c1 | 20.8
O=C(CSc1ccc2nnc(-c3ccc(Cl)cc3)n2n1)Nc1cccc(F)c1 | 9.2
O=C(CSc1ccc2nnc(-c3cccc(F)c3)n2n1)Nc1ccc(F)cc1F | 4.95
Cc1cccc(-c2nc(C(C)(C)C)[nH]c2-c2ccc3c(c2)OCO3)n1 | 36.6
CCCN(Cc1ccccc1)C(=S)Nc1ccc2nc[nH]c(=O)c2c1 | 8.45

Excerpt of the above (sample 3):
target | remaining activity [%]
Cyclin-dependent kinase 1, with cyclin A (CDK1, Homo sapiens, UniProt P06493) | 92
cGMP-dependent protein kinase 2 (PRKG2, Homo sapiens, UniProt Q13237) | 105
Discoidin domain-containing receptor 2 (DDR2, Homo sapiens, UniProt Q16832) | 91.3
Cyclin-dependent kinase 9, with cyclin K (CDK9, Homo sapiens, UniProt P50750) | 95.9
MAP/microtubule affinity-regulating kinase 4 (MARK4, Homo sapiens, UniProt Q96L34) | 91.4
